Measured values collected from several papers.
± marks the error that the study gave.
Organism: Salmonella typhimurium

| Structure (SMILES) | test | system | setting | how to read | endpoint | result |
| --- | --- | --- | --- | --- | --- | --- |
| CC(C)N(C)N=O | mutagenicity, Ames plate incorporation | TA1535 | 5000 µg/plate, 3 d, without S9, methanol | – | revertant colonies per plate | 33 ± 7 |
| O=[N+]([O-])c1ccc(NC2CCNCC2)c(C(F)(F)F)c1 | genotoxicity, SOS/umu test | TA1535/pSK1002 | 0.25 mg/mL, 4 h, without S9, full range | – | induction factor | 0.5 |
| CC(=O)N1CCC(C(=O)N2CCN3C(=O)c4cc(-c5ccccc5)ccc4NC(=O)C3C2)CC1 (stereo not shown) | – | TA98 | 50 µg/plate, together with: rat liver S9 | – | revertants per plate | 43 |
| COc1cccc(-c2n[nH]c(SCc3ccccn3)n2)c1OC | Ames test, preincubation | TA1535 | 1.0 mg/plate, without S9 | – | revertant colonies per plate | 14 |
| N#C[C@@]1(n2ccc(N)nc2=O)O[C@H](CO)[C@@H](O)[C@H]1O | – | TA1537 | 2.5 µM, without S9 | – | viability | 89% |
| O=[N+]([O-])c1ccc(N2CCC(NCCC(O)c3ccc(F)c4ccccc34)CC2)c(C(F)(F)F)c1 (stereo not shown) | SOS/umu test | TA1535/pSK1002 | 0.002 mg/mL, 4 h, without S9, full range | – | survival | 51.4% |
| COCCN(CCOC)N=O | mutagenicity, Ames plate incorporation | TA98 | 150 µg/plate, 3 d, without S9, methanol | – | revertant colonies per plate | 26.7 ± 4 |
| Cc1cc(C(=O)NC(C)(C)COc2cccc3c2C(N)=NS(=O)(=O)N3)cc(C)n1 | Ames test, initial | TA1537 | 50.0 µg/plate | baseline: solvent control | revertant ratio | 1.2 |
| O=NN1CCN(C2CCCC2)CC1 | mutagenicity, Ames plate incorporation | TA98 | 1500 µg/plate, 3 d, without S9, methanol | – | revertant colonies per plate | 26 ± 4 |
| Fc1ccc(C2=CCNCC2)cc1 | genotoxicity, SOS/umu test | TA1535/pSK1002 | 0.016 mg/mL, 4 h, with S9, full range | – | induction factor | 1.2 |

Repeated from above:
| Structure (SMILES) | test | system | setting | how to read | endpoint | result |
| --- | --- | --- | --- | --- | --- | --- |
| CC(=O)N1CCC(C(=O)N2CCN3C(=O)c4cc(-c5ccccc5)ccc4NC(=O)C3C2)CC1 (stereo not shown) | – | TA98 | 50 µg/plate, together with: rat liver S9 | – | revertants per plate | 43 |
